Measurements gathered from unrelated publications.
Numbered parts are unrelated; each lists some results of a single study. Positions count from the first letter of the parent shown.

Study 1
Variant: S80G
Target: ABI1, truncated, D143A, DHFR fusion (Arabidopsis thaliana)
Method: DHFR PCA, deep sequencing
Sample: yeast
Notes: methotrexate growth selection, single substitutions
Baseline: wild-type fitted maximum
Reading: higher = stronger binding
Parent: PYL1, truncated, DHFR fusion (Arabidopsis thaliana); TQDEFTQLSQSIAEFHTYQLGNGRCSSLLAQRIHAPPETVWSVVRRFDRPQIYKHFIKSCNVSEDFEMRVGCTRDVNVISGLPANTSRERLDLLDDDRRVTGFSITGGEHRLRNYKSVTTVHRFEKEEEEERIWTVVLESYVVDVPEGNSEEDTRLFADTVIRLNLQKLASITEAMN
| setting | relative binding score [%] |
| --- | --- |
| together with: (+)-ABA 58 µM | 23.4 |
| together with: (+)-ABA 0.032 µM | 9.33 |
| together with: (+)-ABA 17 µM | 13.9 |
| together with: (+)-ABA 710 µM | 76.8 |
| together with: (+)-ABA 0.11 µM | 7.89 |
| together with: (+)-ABA 0 µM | 3.5 |

Study 2
Target: RNA binding protein fox-1 homolog 2, RRM domain, GST-SBP tag (RBFOX2, Homo sapiens, UniProt O43251-10, residues 100-194)
Method: RNA Bind-n-Seq
Molecule type: RNA
Sample: in vitro
Concentration: 365 nM
Notes: natural RNA segment, single round, ends assumed
Baseline: no-protein control
Reading: higher = stronger binding
All sequences stand within: GGGAGUUCUACAGUCCGACGAUC … UGGAAUUCUCGGGUGCCAA
Construct (chain): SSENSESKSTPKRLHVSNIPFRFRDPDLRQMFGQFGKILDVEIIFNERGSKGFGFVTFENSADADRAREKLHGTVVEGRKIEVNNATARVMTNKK
| Strand | RBNS enrichment (R) |
| --- | --- |
| UGACGUUGUUGCAUGUUUGAAAUUCGGUCUGUUUAAAGUGGCAGUCAUGUAUGUGGUUUGGAGGCAGAAUUCUUGAACAUCUUUUGAUGAAGAACAAGGUGGUAUGAUCU | 4.59 |
| UGUUUCCUUAAUUAUCAUGGCAAGAUUACCUCACGUUCAGUAUAGUUUAGUUUUGUGUGUAUCUUACAGUAUGCAUGUUCUGAAAUUAUUUGUGAUCCUGAUAUGUCACA | 0.98 |
| CAUGCUUUCAUUAUCAAGUGUAGUCAGCCGUCUGUUGAGGUCAGGUUUCCUUCCGUUAGCUUUUGGGUUUCCUCGGUGGCUCUGGCAAGGCUGCUGCUGUGUCAUUCGGU | 0.368 |
| UCCACAGGAGAUAGGCAAGAAGAUUGGAGCAGCUUUCUCACAGGUCUGCAAUUUGGAUUUUCUCCAAGUACAUCAUGACACCUUCGUCCUCCUGAACUGGAGAGGGGAAG | 0.253 |
| AAUGGAAUGUUAACUGAAUGGAAUUAAACAUAGCAAUUGUCAAGCCAUCAAAAUUAUAUAUCGAACCACUUAGGCAUGUUACGGGGUAAAGUCCUCACCCCUGCAUUUGA | 1.69 |
| UCCAUGAACACAUUGCUUCUCGGCCUUUUGGCUAAGAUCAAGUGUAGAAAUCCAUGAACACUAAAGGACUUCAUUGAUUUUUUCAGAGAGUAGAAAACAACUUAGUUUUU | 0.411 |
| UAAGCUAUGGGCUUGAAGAUGUUCUUAUAUUUCAGUGACAAUGGACACCUUAGCUUCUUAUGAGGAACUUGAGUUCCCUCCGCCUUGGACAGGGCUGCAGGGCCACGCUG | 0.543 |
| GCUGCGCCUGGUUUCGCCGGACAGAGUUGGUGUUUGGAGCCCAGCCGCCCUCGGGCGCACGGCCUGCCUGUCGCAUGUUUGUGUCUGCCUCGUCCCCUCCCCUGGUGCCU | 9.32 |

Study 3
Target: Sal-like protein 4, full length isoform A (SALL4, Homo sapiens, UniProt Q9UJQ4, residues 1-1053)
Sequence of UniProt Q9UJQ4 (whole entry, looked up): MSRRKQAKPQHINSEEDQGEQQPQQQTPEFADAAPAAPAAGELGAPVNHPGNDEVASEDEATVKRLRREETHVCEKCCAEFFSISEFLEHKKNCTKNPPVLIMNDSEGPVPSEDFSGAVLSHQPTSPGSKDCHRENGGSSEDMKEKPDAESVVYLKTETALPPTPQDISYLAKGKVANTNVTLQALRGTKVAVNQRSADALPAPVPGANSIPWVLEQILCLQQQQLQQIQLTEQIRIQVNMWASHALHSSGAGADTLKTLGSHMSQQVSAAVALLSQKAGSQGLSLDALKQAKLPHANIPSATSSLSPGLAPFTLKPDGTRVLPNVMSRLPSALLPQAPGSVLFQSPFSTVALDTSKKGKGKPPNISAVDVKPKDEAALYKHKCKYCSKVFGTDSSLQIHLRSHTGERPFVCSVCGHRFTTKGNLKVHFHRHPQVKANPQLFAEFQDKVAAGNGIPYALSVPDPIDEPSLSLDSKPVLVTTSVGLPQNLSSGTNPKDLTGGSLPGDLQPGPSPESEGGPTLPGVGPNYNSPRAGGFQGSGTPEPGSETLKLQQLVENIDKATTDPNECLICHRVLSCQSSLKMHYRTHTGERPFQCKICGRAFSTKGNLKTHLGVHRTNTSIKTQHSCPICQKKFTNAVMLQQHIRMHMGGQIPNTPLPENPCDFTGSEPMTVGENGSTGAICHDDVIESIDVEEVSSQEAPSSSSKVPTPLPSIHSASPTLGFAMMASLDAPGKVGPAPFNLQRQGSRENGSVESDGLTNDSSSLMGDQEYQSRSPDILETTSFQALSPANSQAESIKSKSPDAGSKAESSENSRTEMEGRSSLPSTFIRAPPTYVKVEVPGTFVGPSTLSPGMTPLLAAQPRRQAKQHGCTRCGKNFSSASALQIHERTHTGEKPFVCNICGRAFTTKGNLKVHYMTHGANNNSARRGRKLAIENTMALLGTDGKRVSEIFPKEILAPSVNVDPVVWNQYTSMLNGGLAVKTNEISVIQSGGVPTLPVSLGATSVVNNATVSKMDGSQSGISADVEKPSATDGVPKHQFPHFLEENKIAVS
Method: universal PBM
Molecule type: double-stranded DNA, one strand shown
Sample: in vitro
Concentration: 600 nM
Notes: 8-mer, flanks averaged, mean of replicates
Reading: higher = stronger binding
| Strand | E-score |
| --- | --- |
| AGTGAAGA | 0.0885 |
| GGAAGTCA | -0.0698 |
| AGTCCCGG | -0.326 |
| ACAAAGGC | -0.151 |
| ACCCAGCA | -0.15 |
| AACGACGC | -0.0106 |
| GTAACCAC | -0.116 |
| ACTATTTA | 0.279 |

Further values, each from its own experiment
Parent: PafA, mature enzyme, eGFP fusion (Elizabethkingia meningoseptica, UniProt Q9KJX5); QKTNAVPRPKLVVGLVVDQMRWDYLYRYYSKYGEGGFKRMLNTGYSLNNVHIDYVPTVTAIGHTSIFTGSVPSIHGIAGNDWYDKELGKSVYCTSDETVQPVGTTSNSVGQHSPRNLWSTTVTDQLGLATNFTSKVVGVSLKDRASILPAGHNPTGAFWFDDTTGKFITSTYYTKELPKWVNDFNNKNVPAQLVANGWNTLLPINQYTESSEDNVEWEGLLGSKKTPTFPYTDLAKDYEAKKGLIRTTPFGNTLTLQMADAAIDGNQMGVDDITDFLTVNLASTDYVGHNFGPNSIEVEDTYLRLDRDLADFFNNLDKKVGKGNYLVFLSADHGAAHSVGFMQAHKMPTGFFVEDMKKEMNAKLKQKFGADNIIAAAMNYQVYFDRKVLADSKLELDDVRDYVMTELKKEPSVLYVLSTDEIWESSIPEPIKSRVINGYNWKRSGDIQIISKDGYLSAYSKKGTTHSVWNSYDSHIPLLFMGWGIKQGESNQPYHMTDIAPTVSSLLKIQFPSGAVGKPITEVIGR
| Variant | target | assay | system | setting | how to read | endpoint | result |
| --- | --- | --- | --- | --- | --- | --- | --- |
| I524G | vanadate, free oxyanion | microfluidic competitive inhibition | in vitro, cell-free expressed | not given, derived from inhibition constants, unchanged parent 676 nM | lower = stronger binding | oxyanion analog dissociation constant | 669 nM |

For quick reference, copied from above (study 1):
| setting | relative binding score [%] |
| --- | --- |
| together with: (+)-ABA 0.11 µM | 7.89 |
| together with: (+)-ABA 710 µM | 76.8 |
| together with: (+)-ABA 0.032 µM | 9.33 |
